# Measured values from different studies.
# Lines come from different studies, so protocols differ. Numbers after ± are the reported error.
# DRD2: D(2) dopamine receptor (DRD2, Homo sapiens, UniProt P14416)
# Sequence of UniProt P14416 (whole entry, unmodified, looked up): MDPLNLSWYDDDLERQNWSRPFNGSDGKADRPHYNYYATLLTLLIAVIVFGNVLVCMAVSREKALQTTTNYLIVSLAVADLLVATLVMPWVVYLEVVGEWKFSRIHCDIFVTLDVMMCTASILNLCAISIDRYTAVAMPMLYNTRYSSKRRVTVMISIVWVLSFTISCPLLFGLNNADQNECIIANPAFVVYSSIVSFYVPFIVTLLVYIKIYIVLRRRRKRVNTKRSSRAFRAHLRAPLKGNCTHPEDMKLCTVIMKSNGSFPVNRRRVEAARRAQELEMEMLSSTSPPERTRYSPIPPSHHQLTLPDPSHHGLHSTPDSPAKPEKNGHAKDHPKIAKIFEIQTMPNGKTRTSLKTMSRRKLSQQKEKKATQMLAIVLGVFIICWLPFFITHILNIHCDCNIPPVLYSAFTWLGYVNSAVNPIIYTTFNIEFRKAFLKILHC
Compound,target,assay,quantity,result
O=C1CCc2ccc(OCCCCN3CCN(c4cccc5c4ccn5Cc4ccccc4)CC3)cc2N1,DRD2,cell-free assay,Ki,0.022 µM
CN(C)C1(CNC(=O)c2cnn(-c3ccc(Cl)cc3)c2)CCSC1 (stereo not shown),DRD2,"ligand displacement, radioligand",Ki,> 10 µM
CC(C)n1ccc2c(N3CCN(CCCCOc4ccc5c(c4)NC(=O)CC5)CC3)cccc21,DRD2,"cAMP, antagonist",Kb,0.0113 µM
Cn1c(C(=O)N[C@H]2CC[C@H](CCN3CCc4ccc(C#N)cc4C3)CC2)cc2ccccc21,"D(2) dopamine receptor, dimer with WT protomer (DRD2, Homo sapiens, UniProt P14416, E95A)",cell-based,IC50,1.55 µM
CCS[C@H]1CC[C@@H](N(C)CC(=O)Nc2ccc(C)c(C)c2)C1,DRD2,"ligand displacement, radioligand",Ki,> 10 µM
CCn1c2ccccc2c2cc(CNCCCn3ccnc3)ccc21,DRD2,cell-free assay,Ki,> 10 µM
Oc1c(CN2CCN(c3ccccn3)CC2)cc(Cl)c2cccnc12,"DRD2 (Homo sapiens, UniProt P14416, H393A)","cAMP, agonist, luciferase",EC50,0.35 µM
COc1ccc2c(c1)c1c(n2CO)CN2CCc3cc(OCc4cccc(F)c4)c(OC)cc3C2C1 (stereo not shown),DRD2,"calcium signal, antagonist",IC50,> 100 µM
CCn1c2ccccc2c2cc(CN[C@H]3CC[C@H](NC(=O)c4cc5ccccc5[nH]4)CC3)ccc21,DRD2,cell-free assay,Ki,> 10 µM
Cc1ccc(C(=O)NC[C@@H](C)N2CCCC2)cc1I,DRD2,"ligand displacement, radioligand",Ki,> 10 µM
CC1(C)C2=C3C=C4C5=[N+](CCC4OC3CCN2c2ccc(S(=O)(=O)[O-])cc21)c1ccc(C(=O)NCCCCOc2ccc(C(=O)CCCN3CCC(O)(c4ccc(Cl)cc4)CC3)cc2)cc1C5(C)C (stereo not shown),DRD2,binding,Ki,0.03 ± 0.0054 µM
O[C@@H]1Cc2ccccc2[C@H]1NCc1cn2ccc(Br)cc2n1,DRD2,"ligand displacement, radioligand",Ki,> 10 µM
COc1ccc2c(c1)c1c(n2CO)CN2CCc3cc(OC)c(OCc4ccccc4)cc3C2C1 (stereo not shown),DRD2,"calcium signal, antagonist",IC50,> 100 µM

# Excerpt of the above:
Compound,target,assay,quantity,result
COc1ccc2c(c1)c1c(n2CO)CN2CCc3cc(OCc4cccc(F)c4)c(OC)cc3C2C1 (stereo not shown),DRD2,"calcium signal, antagonist",IC50,> 100 µM
